Experimental data gathered from unrelated publications.
Each line is one published result; not all experiments were run side by side. ± gives the spread as reported.
Organism: HIV-1

Compound	test	system	conditions	IC50 [nM]
O=c1cc(-c2ccc(O)c(O)c2)oc2cc(O)cc(O)c12	viral replication	TZM-bl, NL4-3, CXCR4-tropic	48 h	1320
N#C[C@]1(CO)O[C@@H](n2cnc3c(N)nc(N)nc32)C[C@@H]1O	viral replication, MTT	MT4	–	0.4 ± 0.1
CC(C)CN(C[C@@H](O)[C@H](Cc1ccccc1)NC(=O)O[C@H]1CO[C@H]2OCC[C@H]21)S(=O)(=O)c1ccc(N)cc1	viral replication	highly PI-resistant variants	–	6.1 to 275
CC(=O)N[C@@H](CC(C)C)C(=O)N[C@@H](CS)C(=O)N[C@@H](CC(=O)O)C(=O)N[C@@H](CS)C(=O)N1CCC[C@H]1C(=O)N[C@@H](CC(N)=O)C(=O)NCC(=O)N1CCC[C@H]1C(=O)N[C@@H](Cc1c[nH]c2ccccc12)C(=O)N[C@H](C(=O)N[C@@H](Cc1c[nH]c2ccccc12)C(=O)N[C@@H](C)C(=O)N1CCC[C@H]1C(=O)N[C@@H](C)C(=O)N[C@@H](Cc1ccccc1)C(=O)N[C@@H](CS)C(=O)N[C@@H](CCC(N)=O)C(=O)N[C@@H](C)C(=O)N[C@H](C(=O)NCC(=O)O)C(C)C)C(C)C	viral replication, inhibitor, SEAP reporter	CEMx174 SEAP reporter, NL4-3	3 days	27500 ± 14200
Cc1ccc(-c2ccc3c(c2)C=C(C(=O)Nc2ccc(C[N+](C)(C)C4CCOCC4)cc2)CCC3)cc1	viral replication	PBMC	–	14 ± 8
CC[C@H](C)[C@H](N)C(=O)N[C@H](C(=O)N[C@@H](Cc1ccccc1)C(=O)N[C@@]1(C)CCC/C=C\CCC[C@@](C)(C(=O)N[C@@H](Cc2ccc(O)cc2)C(=O)N[C@@H](Cc2ccc(O)cc2)C(=O)NCC(=O)N[C@@H](CCCCN)C(=O)N[C@@H](CCCCN)C(=O)N[C@@H](CCCCN)C(N)=O)NC(=O)[C@H](CC(C)C)NC(=O)[C@H](CC(C)C)NC(=O)[C@H](CC(=O)O)NC1=O)[C@@H](C)O	–	–	–	> 100000
NC[C@H](NC(=O)c1ccc(-c2cc(F)c(Cl)c(F)c2)[nH]1)c1ncc(CO)s1 (single isomer, unassigned)	viral infection	TZM-bl, Env-pseudovirus panel	range over panel	270 to 890
CC(C)OC(=O)OCOP(=O)(CO[C@H](C)Cn1cnc2c(N)ncnc21)OCOC(=O)OC(C)C	viral cytopathicity	MT4 cells, wild type	–	203
CC[C@H](C)[C@H](NC(=O)[C@H](CC(C)C)NC(=O)[C@H](CCC(=O)O)NC(=O)[C@H](CCC(=O)O)NC(=O)[C@@H](NC(=O)[C@H](CCCCN)NC(=O)[C@H](CCCCN)NC(=O)[C@@H](NC(=O)[C@H](Cc1ccc(O)cc1)NC(=O)[C@H](CCC(=O)O)NC(=O)[C@H](CCC(=O)O)NC(=O)[C@@H](NC(=O)[C@H](CCCCN)NC(=O)[C@H](CCCCN)NC(=O)[C@H](CC(=O)O)NC(=O)[C@H](Cc1c[nH]c2ccccc12)NC(=O)[C@H](CCC(=O)O)NC(=O)[C@H](CCC(=O)O)NC(=O)[C@H](Cc1c[nH]c2ccccc12)NC(=O)[C@@H](NC(=O)[C@@H](N)CCSC)[C@@H](C)O)[C@@H](C)CC)[C@@H](C)O)[C@@H](C)CC)C(=O)N[C@@H](CCCCN)C(=O)N[C@@H](CCCCN)C(=O)N[C@@H](CO)C(=O)O	virus neutralization	DU422	–	14.8 ± 0.3
N#C[C@]1(CO)O[C@@H](n2cnc3c(=O)[nH]c(N)nc32)C[C@@H]1O	–	NL4-3 wild type	–	0.042
CCCOn1cc(CC(=O)Nc2ccncc2Cl)c2ccccc21	viral replication	HEK293T	–	70 ± 20

Excerpt of the above:
Compound	test	system	conditions	IC50 [nM]
Cc1ccc(-c2ccc3c(c2)C=C(C(=O)Nc2ccc(C[N+](C)(C)C4CCOCC4)cc2)CCC3)cc1	viral replication	PBMC	–	14 ± 8
CC[C@H](C)[C@H](N)C(=O)N[C@H](C(=O)N[C@@H](Cc1ccccc1)C(=O)N[C@@]1(C)CCC/C=C\CCC[C@@](C)(C(=O)N[C@@H](Cc2ccc(O)cc2)C(=O)N[C@@H](Cc2ccc(O)cc2)C(=O)NCC(=O)N[C@@H](CCCCN)C(=O)N[C@@H](CCCCN)C(=O)N[C@@H](CCCCN)C(N)=O)NC(=O)[C@H](CC(C)C)NC(=O)[C@H](CC(C)C)NC(=O)[C@H](CC(=O)O)NC1=O)[C@@H](C)O	–	–	–	> 100000
